Experimental data pooled from the literature.
Numbers after ± are the reported error.
CYP2B6: Cytochrome P450 2B6 (CYP2B6, Homo sapiens, UniProt P20813)
UniProt P20813, sequence (whole entry, looked up): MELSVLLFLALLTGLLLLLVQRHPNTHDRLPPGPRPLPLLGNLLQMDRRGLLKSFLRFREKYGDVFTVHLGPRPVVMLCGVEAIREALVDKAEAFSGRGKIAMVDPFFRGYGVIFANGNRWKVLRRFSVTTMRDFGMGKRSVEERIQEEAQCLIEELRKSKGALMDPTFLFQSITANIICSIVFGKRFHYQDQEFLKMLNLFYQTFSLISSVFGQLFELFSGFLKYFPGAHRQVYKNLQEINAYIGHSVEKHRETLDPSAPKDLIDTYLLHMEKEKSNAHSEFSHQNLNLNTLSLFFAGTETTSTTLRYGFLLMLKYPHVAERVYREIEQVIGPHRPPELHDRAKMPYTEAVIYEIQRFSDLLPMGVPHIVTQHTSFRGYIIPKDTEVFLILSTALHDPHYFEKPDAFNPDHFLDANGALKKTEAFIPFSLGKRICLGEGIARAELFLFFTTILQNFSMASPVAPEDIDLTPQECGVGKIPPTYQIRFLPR
uncharacterized protein: uncharacterized protein (Streptococcus mutans serotype c, UniProt Q8DS94)
UniProt Q92793, sequence (whole entry, looked up): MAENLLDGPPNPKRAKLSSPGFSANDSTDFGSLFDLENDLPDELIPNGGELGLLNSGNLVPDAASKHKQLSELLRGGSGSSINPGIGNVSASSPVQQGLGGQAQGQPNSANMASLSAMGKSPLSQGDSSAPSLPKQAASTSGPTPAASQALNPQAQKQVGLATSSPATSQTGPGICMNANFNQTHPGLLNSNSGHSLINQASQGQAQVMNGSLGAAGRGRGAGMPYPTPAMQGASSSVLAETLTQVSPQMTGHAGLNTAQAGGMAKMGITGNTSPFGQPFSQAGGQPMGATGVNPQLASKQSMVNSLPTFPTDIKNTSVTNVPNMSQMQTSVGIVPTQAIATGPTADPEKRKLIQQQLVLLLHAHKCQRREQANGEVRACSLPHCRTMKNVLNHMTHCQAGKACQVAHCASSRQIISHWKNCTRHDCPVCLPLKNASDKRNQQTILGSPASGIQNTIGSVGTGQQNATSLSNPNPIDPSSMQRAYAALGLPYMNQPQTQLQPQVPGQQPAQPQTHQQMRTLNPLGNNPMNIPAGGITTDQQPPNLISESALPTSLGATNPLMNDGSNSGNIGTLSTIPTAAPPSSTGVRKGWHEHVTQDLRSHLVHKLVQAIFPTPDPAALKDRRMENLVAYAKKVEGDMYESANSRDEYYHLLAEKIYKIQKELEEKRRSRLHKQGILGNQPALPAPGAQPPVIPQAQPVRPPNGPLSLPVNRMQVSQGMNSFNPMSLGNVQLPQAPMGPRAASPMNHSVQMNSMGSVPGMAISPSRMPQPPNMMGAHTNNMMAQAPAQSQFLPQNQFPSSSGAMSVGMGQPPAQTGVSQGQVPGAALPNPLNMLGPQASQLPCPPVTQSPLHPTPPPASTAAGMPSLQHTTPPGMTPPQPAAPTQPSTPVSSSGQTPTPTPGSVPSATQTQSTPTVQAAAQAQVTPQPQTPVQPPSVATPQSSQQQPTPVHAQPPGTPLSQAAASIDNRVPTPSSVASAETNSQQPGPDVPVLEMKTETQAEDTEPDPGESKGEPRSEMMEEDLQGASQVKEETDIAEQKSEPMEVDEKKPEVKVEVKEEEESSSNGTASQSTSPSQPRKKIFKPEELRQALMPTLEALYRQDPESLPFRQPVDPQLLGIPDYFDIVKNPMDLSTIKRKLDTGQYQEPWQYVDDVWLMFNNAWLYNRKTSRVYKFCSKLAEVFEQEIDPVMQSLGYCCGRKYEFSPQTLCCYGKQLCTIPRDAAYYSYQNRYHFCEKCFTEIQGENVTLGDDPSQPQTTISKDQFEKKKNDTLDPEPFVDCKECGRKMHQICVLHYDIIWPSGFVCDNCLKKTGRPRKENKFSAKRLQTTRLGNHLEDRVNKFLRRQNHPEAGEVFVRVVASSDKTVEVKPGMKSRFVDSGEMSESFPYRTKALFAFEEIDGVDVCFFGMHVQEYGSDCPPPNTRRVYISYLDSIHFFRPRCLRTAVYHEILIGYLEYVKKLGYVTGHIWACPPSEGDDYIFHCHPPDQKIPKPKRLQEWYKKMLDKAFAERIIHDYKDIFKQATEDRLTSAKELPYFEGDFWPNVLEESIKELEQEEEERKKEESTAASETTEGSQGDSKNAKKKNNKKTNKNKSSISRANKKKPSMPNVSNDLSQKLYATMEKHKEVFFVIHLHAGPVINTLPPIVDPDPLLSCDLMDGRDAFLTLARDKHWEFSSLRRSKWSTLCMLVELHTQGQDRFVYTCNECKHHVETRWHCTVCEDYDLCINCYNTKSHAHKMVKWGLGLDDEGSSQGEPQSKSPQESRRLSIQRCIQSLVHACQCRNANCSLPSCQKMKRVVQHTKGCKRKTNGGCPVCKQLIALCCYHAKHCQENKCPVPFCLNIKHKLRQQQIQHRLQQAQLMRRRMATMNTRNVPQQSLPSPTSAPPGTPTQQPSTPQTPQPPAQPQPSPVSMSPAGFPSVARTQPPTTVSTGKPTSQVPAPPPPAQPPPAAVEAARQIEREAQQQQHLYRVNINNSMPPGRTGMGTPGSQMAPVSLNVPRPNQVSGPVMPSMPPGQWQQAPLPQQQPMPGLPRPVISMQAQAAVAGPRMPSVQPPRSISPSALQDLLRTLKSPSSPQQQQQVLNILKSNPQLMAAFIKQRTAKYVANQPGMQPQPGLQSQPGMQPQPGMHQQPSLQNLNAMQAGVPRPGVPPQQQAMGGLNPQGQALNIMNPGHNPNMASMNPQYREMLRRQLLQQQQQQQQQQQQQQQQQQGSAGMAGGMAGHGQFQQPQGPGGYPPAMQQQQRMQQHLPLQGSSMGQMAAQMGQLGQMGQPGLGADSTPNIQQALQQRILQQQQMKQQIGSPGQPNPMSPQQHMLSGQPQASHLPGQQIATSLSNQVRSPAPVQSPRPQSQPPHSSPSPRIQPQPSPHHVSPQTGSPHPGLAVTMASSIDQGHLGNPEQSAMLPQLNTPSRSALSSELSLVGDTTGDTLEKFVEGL
UniProt P21554, sequence (whole entry, looked up): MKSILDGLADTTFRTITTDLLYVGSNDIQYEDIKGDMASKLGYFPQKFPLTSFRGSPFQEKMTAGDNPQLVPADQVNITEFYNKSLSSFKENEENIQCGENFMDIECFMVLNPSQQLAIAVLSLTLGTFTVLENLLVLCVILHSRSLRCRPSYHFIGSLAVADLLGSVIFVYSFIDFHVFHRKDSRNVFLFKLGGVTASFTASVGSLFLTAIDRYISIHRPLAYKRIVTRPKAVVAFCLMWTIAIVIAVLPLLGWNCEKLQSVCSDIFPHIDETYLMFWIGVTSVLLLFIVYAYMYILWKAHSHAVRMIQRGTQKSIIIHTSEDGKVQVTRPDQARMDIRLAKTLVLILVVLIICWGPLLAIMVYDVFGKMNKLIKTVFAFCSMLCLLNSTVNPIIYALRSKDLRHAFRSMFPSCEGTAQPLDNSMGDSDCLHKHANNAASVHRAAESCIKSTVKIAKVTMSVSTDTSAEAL
UniProt Q01959, sequence (whole entry, unmodified, looked up): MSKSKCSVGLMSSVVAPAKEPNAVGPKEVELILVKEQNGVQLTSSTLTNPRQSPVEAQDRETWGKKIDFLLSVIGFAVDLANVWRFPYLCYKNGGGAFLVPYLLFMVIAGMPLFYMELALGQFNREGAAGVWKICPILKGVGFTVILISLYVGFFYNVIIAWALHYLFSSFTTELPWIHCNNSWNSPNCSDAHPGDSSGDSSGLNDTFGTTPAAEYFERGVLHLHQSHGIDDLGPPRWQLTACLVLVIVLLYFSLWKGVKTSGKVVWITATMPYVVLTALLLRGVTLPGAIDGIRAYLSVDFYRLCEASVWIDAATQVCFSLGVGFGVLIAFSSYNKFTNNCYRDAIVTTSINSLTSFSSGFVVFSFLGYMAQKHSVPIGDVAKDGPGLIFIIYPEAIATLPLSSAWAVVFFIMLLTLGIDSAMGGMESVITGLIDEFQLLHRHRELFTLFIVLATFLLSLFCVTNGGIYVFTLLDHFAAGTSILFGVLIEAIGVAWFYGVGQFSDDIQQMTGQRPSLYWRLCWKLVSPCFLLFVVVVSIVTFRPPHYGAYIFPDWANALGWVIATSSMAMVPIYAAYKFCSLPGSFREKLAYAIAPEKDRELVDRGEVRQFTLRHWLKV
UniProt P08253, sequence (whole entry, looked up): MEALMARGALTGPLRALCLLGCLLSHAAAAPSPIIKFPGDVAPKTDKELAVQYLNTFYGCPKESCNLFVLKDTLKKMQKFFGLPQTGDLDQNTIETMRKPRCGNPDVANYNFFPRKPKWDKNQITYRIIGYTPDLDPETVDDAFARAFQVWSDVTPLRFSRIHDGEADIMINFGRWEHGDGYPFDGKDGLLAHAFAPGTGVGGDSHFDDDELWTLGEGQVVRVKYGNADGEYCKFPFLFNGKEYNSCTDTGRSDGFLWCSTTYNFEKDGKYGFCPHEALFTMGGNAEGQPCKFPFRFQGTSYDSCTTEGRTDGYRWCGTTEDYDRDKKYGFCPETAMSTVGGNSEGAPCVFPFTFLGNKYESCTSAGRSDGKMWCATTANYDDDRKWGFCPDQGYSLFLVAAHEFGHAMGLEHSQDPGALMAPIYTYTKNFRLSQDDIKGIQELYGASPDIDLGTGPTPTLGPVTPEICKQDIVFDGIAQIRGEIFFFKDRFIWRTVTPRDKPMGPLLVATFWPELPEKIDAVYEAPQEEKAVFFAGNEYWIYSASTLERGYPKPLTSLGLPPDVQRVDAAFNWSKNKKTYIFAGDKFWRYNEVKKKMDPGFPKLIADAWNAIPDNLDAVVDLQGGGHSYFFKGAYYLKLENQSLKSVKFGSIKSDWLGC

N=C(N)NCCC[C@@H]1NC(=O)[C@H](CCCCNC(=O)CCOCCOCCOCCOCCNC(=O)CC[C@H](NC(=O)CCOCCOCCOCCOCCNC(=O)CC[C@H](NC(=O)CN2CCN(CC(=O)O)CCN(CC(=O)O)CCN(CC(=O)O)CC2)C(=O)NCCOCCOCCOCCOCCC(=O)N[C@@H](CCC(=O)NCCOCCOCCOCCOCCC(=O)NCCCC[C@@H]2NC(=O)[C@@H](Cc3ccccc3)NC(=O)[C@H](CC(=O)O)NC(=O)CNC(=O)[C@H](CCCNC(=N)N)NC2=O)C(=O)NCCOCCOCCOCCOCCC(=O)NCCCC[C@@H]2NC(=O)[C@@H](Cc3ccccc3)NC(=O)[C@H](CC(=O)O)NC(=O)CNC(=O)[C@H](CCCNC(=N)N)NC2=O)C(=O)NCCOCCOCCOCCOCCC(=O)NCCCC[C@@H]2NC(=O)[C@@H](Cc3ccccc3)NC(=O)[C@H](CC(=O)O)NC(=O)CNC(=O)[C@H](CCCNC(=N)N)NC2=O)NC(=O)[C@@H](Cc2ccccc2)NC(=O)[C@H](CC(=O)O)NC(=O)CNC1=O [indium-111 labelled]
tissue uptake (female athymic nude mice, liver; intravenous, 3 µCi, 24 h, U-87 MG glioma xenograft): 1.5 ± 0.17 %ID/g

C[C@H](NC(=O)[C@H](CCC(N)=O)NC(=O)[C@H](CCCCN)NC(=O)[C@H](C)NC(=O)[C@@H]1CCCN1C(=O)[C@H](C)NC(=O)[C@H](CCCCN)NC(=O)[C@H](CCC(N)=O)NC(=O)[C@H](C)NC(=O)[C@H](CCCCN)NC(=O)[C@H](CCC(N)=O)NC(=O)[C@@H]1CCCN1C(=O)[C@H](CCC(N)=O)NC(=O)[C@H](CCCCN)NC(=O)[C@H](C)NC(=O)[C@H](CCC(N)=O)NC(=O)[C@H](CCCCN)NC(=O)[C@H](C)NC(=O)[C@@H]1CCCN1C(=O)[C@H](C)NC(=O)[C@H](CCCCN)NC(=O)[C@H](CCC(N)=O)NC(=O)[C@H](C)NC(=O)[C@H](CCCCN)NC(=O)[C@H](CO)NC(=O)[C@H](Cc1ccc(O)cc1)NC(=O)CNC(=O)CNC(=O)CN)C(=O)N[C@@H](CCCCN)C(=O)N[C@@H](CCC(N)=O)C(=O)O
kd1 (binding, SPR two-state model; rVλ6Wil fibrils; 300 nM): 0.045 s⁻¹

CC(C)C[C@H](NC(=O)[C@H](Cc1ccccc1)NC(=O)CNC(=O)CNC(=O)[C@@H](N)Cc1ccc(OC(C(=O)O)c2ccccc2[N+](=O)[O-])cc1)C(=O)O (some centres unmarked)
deactivation speed ratio (K+ current, agonist, photo-uncaging; rat locus coeruleus neurons; reference: uncaging over local perfusion): ~2 fold

CC[C@H](C)[C@H](N)C(=O)N[C@H](C(=O)N[C@@H](CCCCN)C(=O)N[C@H](C(=O)N[C@H](C(=O)NCC(=O)N[C@@H](CC(=O)O)C(=O)N[C@@H](CC(C)C)C(=O)N[C@H](C(=O)N[C@@H](CCCCN)C(=O)N[C@@H](Cc1c[nH]c2ccccc12)C(=O)N[C@H](C(=O)N[C@H](C(=O)N[C@@H](CC(=O)O)C(=O)N[C@H](C(=O)N[C@H](C(=O)N[C@@H](CC(N)=O)C(=O)N[C@@H](CO)C(=O)N[C@@H](Cc1ccccc1)C(=O)N[C@H](C(=O)N[C@@H](CCCCN)C(=O)N[C@@H](CCCCN)C(=O)O)[C@@H](C)O)C(C)C)[C@@H](C)O)[C@@H](C)CC)[C@@H](C)CC)C(C)C)[C@@H](C)CC)[C@@H](C)O)[C@@H](C)CC
Kd (lipid vesicle binding; POPC vesicles; pH 7.5): 7.5 µM

CCCCCc1cc(O)c2c(c1)OC(C)(C)C1CCC(CO)=CC21 (centres unmarked)
IC50 (CYP2B6; enzyme activity, inhibitor; microsomes from HEK293 cells; pH 7.4, with: bupropion): 7.1 ± 3.3 µM

CCC[C@H](C(=O)c1ccccc1)N1CCCC1
Ki (SLC6A3 (Homo sapiens, UniProt Q01959, F76Y); transporter uptake, inhibitor, radiometric): 2.19 µM

C[C@@H](NC(=O)[C@@H](CCC(N)=O)NC(=O)[C@@H](C)NC(=O)[C@@H](CCCCN)NC(=O)[C@@H](CCC(N)=O)NC(=O)[C@@H](C)NC(=O)[C@@H](CCCCN)NC(=O)[C@@H](CCC(N)=O)NC(=O)[C@@H](C)NC(=O)[C@@H](CCC(N)=O)NC(=O)[C@@H](CCCCN)NC(=O)[C@@H](C)NC(=O)[C@@H](CCC(N)=O)NC(=O)[C@@H](CCCCN)NC(=O)[C@@H](C)NC(=O)[C@@H](CCC(N)=O)NC(=O)[C@@H](C)NC(=O)[C@@H](CCCCN)NC(=O)[C@@H](CCC(N)=O)NC(=O)[C@@H](C)NC(=O)[C@@H](CCCCN)NC(=O)[C@@H](CO)NC(=O)[C@@H](Cc1ccc(O)cc1)NC(=O)CNC(=O)CNC(=O)CN)C(=O)N[C@H](CCCCN)C(=O)N[C@H](CCC(N)=O)C(=O)N[C@H](C)C(=O)N[C@H](CCCCN)C(=O)N[C@H](CCC(N)=O)C(=O)O
dissociation rate constant (binding, SPR Langmuir fit; rVλ6Wil fibrils; 300 nM, pH 7.4): 0.0019 s⁻¹

N=C(N)NCCC[C@@H]1NC(=O)[C@H](CCCCNC(=O)CCOCCOCCOCCOCCNC(=O)CN2CCN(CC(=O)O)CCN(CC(=O)O)CCN(CC(=O)O)CC2)NC(=O)[C@@H](Cc2ccccc2)NC(=O)[C@H](CC(=O)O)NC(=O)CNC1=O [indium-111 labelled]
tissue uptake (athymic nude mice, female, U-87 MG glioma xenograft, spleen; intravenous, 3 µCi, 24 h): 0.63 ± 0.11 %ID/g

CC(C)[C@H](N)C(=O)N[C@@H](Cc1ccc(O)cc1)C(=O)N[C@@H](CCCCN)C(=O)N[C@H](C(=O)N[C@@H](CCCCN)C(=O)N[C@H](C(=O)N[C@@H](CCCCN)C(=O)N[C@H](C(=O)N[C@@H](CCCCN)C(=O)N[C@H](C(=O)N[C@@H](CCCCN)C(=O)N[C@H](C(=O)N[C@@H](CCCCN)C(=O)N[C@H](C(=O)N[C@@H](CCCCN)C(=O)N[C@H](C(=O)N[C@@H](CCCCN)C(=O)N[C@H](C(=O)O)[C@@H](C)O)C(C)C)[C@@H](C)O)C(C)C)[C@@H](C)O)C(C)C)[C@@H](C)O)C(C)C
kd1 (binding, SPR two-state model; rVλ6Wil fibrils; 300 nM): 0.026 s⁻¹

CC(C)C[C@H](NC(=O)[C@H](CCCNC(=N)N)NC(=O)[C@H](Cc1ccccc1)NC(=O)[C@H](Cc1ccccc1)NC(=O)[C@@H](NC(=O)[C@H](CO)NC(=O)[C@H](CC(C)C)NC(=O)[C@@H](N)CO)[C@@H](C)O)C(=O)N[C@@H](Cc1ccccc1)C(=O)N[C@@H](CC(N)=O)C(=O)N[C@@H](CCCNC(=N)N)C(=O)N[C@@H](CO)C(=O)N[C@@H](Cc1ccccc1)C(=O)N[C@H](C(=O)N[C@@H](CCC(N)=O)C(=O)N[C@@H](C)C(=O)O)[C@@H](C)O
EC50 (uncharacterized protein; Streptococcus mutans): 0.0079 µM

CCS(=O)(=O)Nc1cc(-c2cn(C)c3c(=O)[nH]ccc23)cc2c1ccn2C(C)(c1ccccn1)c1ccccn1
IC50 (CREBBP (Homo sapiens, UniProt Q92793); cell-free assay): 0.116 µM

CC(C)C[C@H](NC(=O)[C@H](CCCNC(=N)N)NC(=O)[C@H](Cc1ccccc1)NC(=O)[C@H](Cc1ccccc1)NC(=O)[C@@H](NC(=O)[C@H](CO)NC(=O)[C@@H](CC(C)C)NC(=O)[C@H](CO)NC(=O)CNC(=O)[C@@H](N)CO)[C@@H](C)O)C(=O)N[C@@H](Cc1ccccc1)C(=O)N[C@@H](CC(N)=O)C(=O)N[C@@H](CCCNC(=N)N)C(=O)N[C@@H](CO)C(=O)N[C@@H](Cc1ccccc1)C(=O)N[C@H](C(=O)N[C@@H](CCC(N)=O)C(=O)N[C@@H](C)C(=O)O)[C@@H](C)O
EC50 (uncharacterized protein; Streptococcus mutans): 0.0045 µM

CC(=O)N[C@@H](Cc1c[nH]cn1)C(=O)N[C@@H](CCCNC(=N)N)C(=O)N[C@@H](CCCNC(=N)N)C(=O)N[C@@H](CCCNC(=N)N)C(=O)N[C@@H](CCCNC(=N)N)C(=O)N[C@@H](CCCNC(=N)N)C(=O)N[C@@H](CCCNC(=N)N)C(=O)N[C@@H](CCCNC(=N)N)C(=O)N[C@@H](CCCNC(=N)N)C(=O)N[C@@H](Cc1c[nH]cn1)C(N)=O
binding constant (Albumin (ALB, Bos taurus, UniProt P02769); fluorescence quenching): 520000 M⁻¹

CCCCCn1cc(C(=O)c2cccc3ccccc23)c2ccccc21
EC50 (CNR1 (Homo sapiens, UniProt P21554); G protein activation, agonist, BRET): 0.0245 µM

O=P(O)(O)Oc1ccc(Oc2ccc(S(=O)(=O)CC3CS3)cc2)cc1 (racemic)
Ki (MMP2 (Homo sapiens, UniProt P08253); enzyme activity, inhibitor): 11.7 µM

CCCCCc1cc(O)c2c(c1)OC(C)(C)C1CCC(C)=CC21 (single isomer, unassigned; (-))
IC50 (CYP2B6; enzyme activity, inhibitor; human, liver microsomes; pH 7.4): 19 µM

NCCCC[C@H](NC(=O)CNC(=O)CNC(=O)[C@H](CCCCN)NC(=O)CNC(=O)CNC(=O)CNC(=O)[C@H](CCCCN)NC(=O)CNC(=O)CNC(=O)[C@H](CCCCN)NC(=O)CNC(=O)CNC(=O)CNC(=O)[C@H](CCCCN)NC(=O)CNC(=O)CNC(=O)[C@H](CCCCN)NC(=O)CNC(=O)CNC(=O)CNC(=O)[C@H](CCCCN)NC(=O)CNC(=O)CNC(=O)[C@H](CCCCN)NC(=O)[C@H](CO)NC(=O)[C@H](Cc1ccc(O)cc1)NC(=O)CNC(=O)CNC(=O)CN)C(=O)NCC(=O)O
Kd (binding, SPR Langmuir fit; rVλ6Wil fibrils; pH 7.4): 0.018 µM

A few entries again:
O=P(O)(O)Oc1ccc(Oc2ccc(S(=O)(=O)CC3CS3)cc2)cc1 (racemic)
Ki (MMP2 (Homo sapiens, UniProt P08253); enzyme activity, inhibitor): 11.7 µM

C[C@@H](NC(=O)[C@@H](CCC(N)=O)NC(=O)[C@@H](C)NC(=O)[C@@H](CCCCN)NC(=O)[C@@H](CCC(N)=O)NC(=O)[C@@H](C)NC(=O)[C@@H](CCCCN)NC(=O)[C@@H](CCC(N)=O)NC(=O)[C@@H](C)NC(=O)[C@@H](CCC(N)=O)NC(=O)[C@@H](CCCCN)NC(=O)[C@@H](C)NC(=O)[C@@H](CCC(N)=O)NC(=O)[C@@H](CCCCN)NC(=O)[C@@H](C)NC(=O)[C@@H](CCC(N)=O)NC(=O)[C@@H](C)NC(=O)[C@@H](CCCCN)NC(=O)[C@@H](CCC(N)=O)NC(=O)[C@@H](C)NC(=O)[C@@H](CCCCN)NC(=O)[C@@H](CO)NC(=O)[C@@H](Cc1ccc(O)cc1)NC(=O)CNC(=O)CNC(=O)CN)C(=O)N[C@H](CCCCN)C(=O)N[C@H](CCC(N)=O)C(=O)N[C@H](C)C(=O)N[C@H](CCCCN)C(=O)N[C@H](CCC(N)=O)C(=O)O
dissociation rate constant (binding, SPR Langmuir fit; rVλ6Wil fibrils; 300 nM, pH 7.4): 0.0019 s⁻¹

CC(C)C[C@H](NC(=O)[C@H](CCCNC(=N)N)NC(=O)[C@H](Cc1ccccc1)NC(=O)[C@H](Cc1ccccc1)NC(=O)[C@@H](NC(=O)[C@H](CO)NC(=O)[C@@H](CC(C)C)NC(=O)[C@H](CO)NC(=O)CNC(=O)[C@@H](N)CO)[C@@H](C)O)C(=O)N[C@@H](Cc1ccccc1)C(=O)N[C@@H](CC(N)=O)C(=O)N[C@@H](CCCNC(=N)N)C(=O)N[C@@H](CO)C(=O)N[C@@H](Cc1ccccc1)C(=O)N[C@H](C(=O)N[C@@H](CCC(N)=O)C(=O)N[C@@H](C)C(=O)O)[C@@H](C)O
EC50 (uncharacterized protein; Streptococcus mutans): 0.0045 µM
